Experimental data pooled from the literature.
A part holds a random share of what one study measured. Positions count from the first letter of the parent shown.

Study 1
Target: Hepatocyte nuclear factor 3-alpha (Foxa1, Mus musculus, UniProt P35582, residues 1-468, full length assumed)
Chain of UniProt P35582 (whole entry, looked up): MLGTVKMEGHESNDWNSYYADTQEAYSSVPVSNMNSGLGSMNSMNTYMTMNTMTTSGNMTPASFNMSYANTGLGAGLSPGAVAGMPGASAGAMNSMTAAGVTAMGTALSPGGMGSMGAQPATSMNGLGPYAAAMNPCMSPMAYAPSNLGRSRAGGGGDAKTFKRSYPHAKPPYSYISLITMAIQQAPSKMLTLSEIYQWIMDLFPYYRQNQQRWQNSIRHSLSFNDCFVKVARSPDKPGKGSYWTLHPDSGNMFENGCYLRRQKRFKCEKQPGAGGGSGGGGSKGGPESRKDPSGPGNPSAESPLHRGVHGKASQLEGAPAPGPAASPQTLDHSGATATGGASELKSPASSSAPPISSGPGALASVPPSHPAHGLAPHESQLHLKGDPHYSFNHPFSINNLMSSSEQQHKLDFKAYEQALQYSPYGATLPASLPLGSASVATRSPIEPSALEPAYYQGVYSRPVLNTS
Method: EMSA with sequencing
Molecule type: double-stranded DNA, one strand shown
Sample: in vitro
Concentration: 10 and 20 nM
Setting: whole designed probe, mean of two concentrations, ends assumed
Baseline: negative control set to 0
Reading: higher = stronger binding
| Sequence | normalised bound fraction |
| --- | --- |
| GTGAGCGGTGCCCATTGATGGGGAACACTTCCCCACTTCCATGTTGCAATTCCCTTCTCCAATAATGGGAAATTTGGTCTCATTATCCTCAATATGGCTATGTCTTTGCTCAATTTACTAGATTGCTTAATGTAACCAGCATCCCAACTGCACTGGCTGCCTCTGTCTGCTGCTTCCACACTTTCCTCCTTTTCACTTCCTCAGACTTGGGGCATGCTGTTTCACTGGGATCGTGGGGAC | 0.0725 ratio |
| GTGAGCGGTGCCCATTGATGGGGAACATTAGTTCATGCCAGGCAGGGTTTGACCAAAACCTTGGACTCACTCCTGTCTGCTTTCCTTCAGAGACTATGAGGATTCCTGAGATGGATGTGCAAACATGAAGTGTTTACTTTCCTCCATGGGAATGTACTTCTGGCTTCCACTCCTCAGCTGCTGCTGCTAAGCCAGTGAGATAGATGGTGGTTTGGAAACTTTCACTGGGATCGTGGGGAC | 0.42 ratio |
| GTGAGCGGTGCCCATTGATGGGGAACGATTTTTGGGGATTTTTGAAAATAGCCCTATGTCTTGGATATGAGTCACAAATTGCCCCCCCCCCCACGTTTTCGTCATTTGTCTCCAAGCTCTGTTTACATTGGTGTTTGCCGTGCAGAAGTTTTTCTTTAATGTAATAAAATGTAGCCATCTTTTTTAAAATGACCTCTGGACTTCATGTGTTTGGAGTTTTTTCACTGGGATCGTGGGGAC | 0.354 ratio |
| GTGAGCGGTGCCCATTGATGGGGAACCACCGCGCTCGCACGGCTTTGTCCGTGCTACAAAGCAGCCTGTTAAACTATTGGAACTAATGCGCCGCAGCTGCGCGAGTGACTTCTGCTGCTTATGTACATAAAAAGTCCTGTAACCATGGGGGAGGGCTCAGATGCCTGCTGCTGGGTTGTTTGGCTAGTCTTTCCATTTGCTTATTCCTGAATCCAAAGGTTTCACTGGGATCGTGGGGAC | 0.324 ratio |
| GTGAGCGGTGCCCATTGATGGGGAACCCATTTCTTTTATTTAAATTTTGATTTCTCCTTGACTTTTATCAGTTACTTCCTTTTGATCCTTTTCTCATATTCTTTTTTCTGTAGTCCTATGTTTACTTAGATCATTTAATATATTATAGTATTCAAGTATTTCAGCAACAGATTTTTTTATGTCAGAAGCATTGGAATCATTTTAAAAATCAAAACTTTATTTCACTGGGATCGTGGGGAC | 0.498 ratio |
| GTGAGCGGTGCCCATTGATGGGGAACTTCTGAAATGTCTCCCTCAGCTTCTCTCATTCAAACGTAGACTCTGATCAATTTCACCATCAATGCCATTGCACAGAGACAGCGCTTTGACTAAGTAATCTAGACATCTTTTTCAACTAGTGCAGCCCAATGAATGTGGTTAATAATTAAGTGACTAATATTTTGTAAGGCTGTGTGAGAAGCATTAATTAGGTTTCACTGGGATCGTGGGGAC | -0.0575 ratio |
| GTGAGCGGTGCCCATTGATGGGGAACATCTTCCCCCTCTTCCTTGCCCCACCAGCTCACCTTCCCGGGTTATTTGCAGATAGGAAAATAAATAAAGCCGGCATTCGTTAACCCTCTTCACGCGCATACTGCCAGAGCAAACAGATCTAACATGGTCCTTTGGGATGAATCATGTCCGGGAGAGCAAAGCACCGTGTCAGGGCCATGATCCGGGGTGGCCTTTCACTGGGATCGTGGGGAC | 0.386 ratio |
| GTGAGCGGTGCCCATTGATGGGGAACTGTATCCATCTGGGCAGTATCTTCTCTGGGCCTGGCCTGTCATAGGTGCTTCAGGTTTCCCCATTTGAACCAGATACCAGTCGGGTTACCGGATGTTTGCTTAAAATGAGTCATAGGCTTCCTGCTATTCCTGTGCTGCTTCCAGCTAGGACTGATCGAATCAGTCTGGATTTTCCTTGGGGTGATCCGCAGGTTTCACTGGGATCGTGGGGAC | 0.143 ratio |

Study 2
Target: CCNE2, cyclin fold, Cln2 fusion (human)
Method: yeast growth competition, sequencing
Sample: yeast
Setting: weak parent motif
Baseline: not given
Reading: higher = stronger binding
Starting sequence: SLBP docking peptide (human); ARYKRKLLINDFG
| Substitution | normalised enrichment score |
| --- | --- |
| R5C | 1 |
| R5T | 0.485 |
| N10M | 0.682 |
| L7F | 1.03 |
| Y3Q | -0.234 |
| D11T | 1.41 |
| K4W | 1.6 |
| K6P | -0.183 |
| K6C | 1.32 |
| K4A | 0.375 |
| F12K | 0.793 |
| R2D | 0.806 |
| I9N | 0.743 |
| I9R | 0.653 |
| Y3W | 0.454 |
| K6I | 0.628 |
| R5L | 0.932 |
| N10F | 1.33 |

Study 3
Target: ABI1, truncated, D143A, DHFR fusion (Arabidopsis thaliana, UniProt P49597)
Method: DHFR PCA, dose-response
Sample: yeast
Setting: Hill fit, mean, not affinity
With: (+)-ABA, dose series
Reading: lower = more sensitive
Starting sequence: PYL1, truncated, DHFR fusion (Arabidopsis thaliana, UniProt Q8VZS8); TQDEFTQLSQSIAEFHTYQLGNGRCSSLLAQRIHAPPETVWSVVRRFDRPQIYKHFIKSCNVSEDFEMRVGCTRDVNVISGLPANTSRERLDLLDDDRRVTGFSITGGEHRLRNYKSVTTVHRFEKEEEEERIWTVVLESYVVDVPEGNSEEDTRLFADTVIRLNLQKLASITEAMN
| Substitution | ABA EC50 |
| --- | --- |
| K168L | 77.5 µM |
| G23Q | 5.58 µM |
| T17G | 35.7 µM |
| G148W | 84.5 µM |
| T86V | 44 µM |
| R49Y | 13.4 µM |
| R99S | 73.9 µM |
| F5S | 4.87 µM |
| G71Q | 170 µM |
| Q31G | 168 µM |
| G107F | 270 µM |
| R90I | 18.7 µM |
| A170L | 56.8 µM |
| L138S | 868 µM |
| L164I | 3.75 µM |
| V161A | 712 µM |
| K168G | 4.58 µM |

Study 4
Target: Ras GTPase-activating protein-binding protein 1, C-terminal RGG region (G3BP1, Homo sapiens, UniProt Q13283)
Chain of UniProt Q13283 (whole entry, looked up): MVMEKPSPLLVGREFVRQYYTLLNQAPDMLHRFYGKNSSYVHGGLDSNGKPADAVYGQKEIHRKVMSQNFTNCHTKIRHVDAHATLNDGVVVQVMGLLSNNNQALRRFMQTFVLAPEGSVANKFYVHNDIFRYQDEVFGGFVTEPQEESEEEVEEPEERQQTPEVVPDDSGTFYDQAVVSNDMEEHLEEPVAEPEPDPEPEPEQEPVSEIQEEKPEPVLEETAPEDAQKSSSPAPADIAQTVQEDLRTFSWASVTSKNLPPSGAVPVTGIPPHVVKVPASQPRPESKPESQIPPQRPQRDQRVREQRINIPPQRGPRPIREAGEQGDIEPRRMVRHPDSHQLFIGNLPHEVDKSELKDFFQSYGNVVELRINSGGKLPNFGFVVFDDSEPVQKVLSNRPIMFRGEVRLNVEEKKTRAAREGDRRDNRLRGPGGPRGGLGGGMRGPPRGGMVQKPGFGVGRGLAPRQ
Method: RNA Bind-n-Seq
Molecule type: RNA
Sample: in vitro
Concentration: 1 µM
Setting: whole 134-nt RNA, ends assumed
With: 150 mM KCl
Baseline: input library
Reading: higher = stronger binding
| Sequence | log2 enrichment |
| --- | --- |
| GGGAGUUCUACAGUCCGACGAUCCAAGUCCUGUGCUACACAUCGUAUGUACCGAAUCGGGUGGGUUUUUGGGAAAGGGAAAGUAUUAUGUUACGCCGUUCGGAUCUGCACUUCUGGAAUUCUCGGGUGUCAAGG | 0.289 |
| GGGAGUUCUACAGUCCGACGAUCUGGCCCUGGUGGCAUGCGGGGAGGAAGAGGUGGCCUCAUGGAUCGUGGUGGUCCCAGUGGAAUGUUCAGAGGUGGCCGUGGUGGAGACAGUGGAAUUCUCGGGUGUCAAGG | 1.72 |
| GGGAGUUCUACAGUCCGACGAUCUUUUACAUUUAUACACAUGUAUUGGCUUCCUUUUACACUAUUAGGCGGUCAAGAAGCAGAUCGAGACGGCGGUCACAUUCUAAGUCUAGGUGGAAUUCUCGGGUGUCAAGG | 0.122 |
| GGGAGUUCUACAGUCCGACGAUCCUCAAGUCCUGUGCUACACAUCGUAUGUACCGAAUCGGGUUGGGUUGGUUGGGGAAAGUAUUAUGUUACGCCGUUCGGAUCUGCACUUCCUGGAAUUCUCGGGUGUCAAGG | 0.889 |
| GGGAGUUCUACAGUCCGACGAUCAAGUCCUGUGCUACACAUCGUAUGUACCGAAUCGGGGAAAGGGGAAAGGGAAAGGGGAAAGUAUUAUGUUACGCCGUUCGGAUCUGCACUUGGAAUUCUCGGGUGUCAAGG | 0.998 |
| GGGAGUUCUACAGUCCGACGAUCGCAGGAAGUAAAAACAAAUGGAAAUGCUUCGGAUAGUGGCAGGGGUGGGGGUUGCUAAGGAAAGGGUGGGAUGGGAGUGGGUGAAGAGUUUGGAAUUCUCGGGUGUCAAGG | 0.599 |
| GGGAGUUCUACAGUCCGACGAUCCCUCAAGUCCUGUGCUACACAUCGUAUGUACCGAAUCGGGGCGGGCGGGGCGGAAAGUAUUAUGUUACGCCGUUCGGAUCUGCACUUCCAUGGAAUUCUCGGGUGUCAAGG | 0.989 |
| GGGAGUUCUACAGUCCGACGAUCGUCCUGUGCUACACAUCGUAUGUACCGAAUCGGGUUUUUGGGGUUUUUGGGGUUUUUGGAAAGUAUUAUGUUACGCCGUUCGGAUCUGCAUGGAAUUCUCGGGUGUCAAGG | -0.461 |
| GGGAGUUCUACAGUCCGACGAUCUCAAGUCCUGUGCUACACAUCGUAUGUACCGAAUCGGGGUUGGGGUUGGGUUGGGAAAGUAUUAUGUUACGCCGUUCGGAUCUGCACUUCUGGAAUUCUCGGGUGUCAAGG | 1.93 |
| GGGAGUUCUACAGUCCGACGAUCCAAGUCCUGUGCUACACAUCGUAUGUACCGAAUCGGGUUUUUGGGAAAGGGUGGGAAAGUAUUAUGUUACGCCGUUCGGAUCUGCACUUCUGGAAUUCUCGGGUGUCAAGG | 1.51 |

Excerpt of the above (study 2):
| Substitution | normalised enrichment score |
| --- | --- |
| N10F | 1.33 |
| D11T | 1.41 |
| I9N | 0.743 |
| K6C | 1.32 |
| L7F | 1.03 |
| R5C | 1 |
| K6I | 0.628 |
| N10M | 0.682 |
